Measured values pooled from the literature.
Each line is one published result; not all experiments were run side by side. ± gives the spread as reported.
Serine/threonine-protein kinase/endoribonuclease IRE1 N772Y: Serine/threonine-protein kinase/endoribonuclease IRE1 (Mus musculus, UniProt Q9EQY0, N772Y)
UniProt Q9EQY0, sequence (whole entry, unmodified, looked up): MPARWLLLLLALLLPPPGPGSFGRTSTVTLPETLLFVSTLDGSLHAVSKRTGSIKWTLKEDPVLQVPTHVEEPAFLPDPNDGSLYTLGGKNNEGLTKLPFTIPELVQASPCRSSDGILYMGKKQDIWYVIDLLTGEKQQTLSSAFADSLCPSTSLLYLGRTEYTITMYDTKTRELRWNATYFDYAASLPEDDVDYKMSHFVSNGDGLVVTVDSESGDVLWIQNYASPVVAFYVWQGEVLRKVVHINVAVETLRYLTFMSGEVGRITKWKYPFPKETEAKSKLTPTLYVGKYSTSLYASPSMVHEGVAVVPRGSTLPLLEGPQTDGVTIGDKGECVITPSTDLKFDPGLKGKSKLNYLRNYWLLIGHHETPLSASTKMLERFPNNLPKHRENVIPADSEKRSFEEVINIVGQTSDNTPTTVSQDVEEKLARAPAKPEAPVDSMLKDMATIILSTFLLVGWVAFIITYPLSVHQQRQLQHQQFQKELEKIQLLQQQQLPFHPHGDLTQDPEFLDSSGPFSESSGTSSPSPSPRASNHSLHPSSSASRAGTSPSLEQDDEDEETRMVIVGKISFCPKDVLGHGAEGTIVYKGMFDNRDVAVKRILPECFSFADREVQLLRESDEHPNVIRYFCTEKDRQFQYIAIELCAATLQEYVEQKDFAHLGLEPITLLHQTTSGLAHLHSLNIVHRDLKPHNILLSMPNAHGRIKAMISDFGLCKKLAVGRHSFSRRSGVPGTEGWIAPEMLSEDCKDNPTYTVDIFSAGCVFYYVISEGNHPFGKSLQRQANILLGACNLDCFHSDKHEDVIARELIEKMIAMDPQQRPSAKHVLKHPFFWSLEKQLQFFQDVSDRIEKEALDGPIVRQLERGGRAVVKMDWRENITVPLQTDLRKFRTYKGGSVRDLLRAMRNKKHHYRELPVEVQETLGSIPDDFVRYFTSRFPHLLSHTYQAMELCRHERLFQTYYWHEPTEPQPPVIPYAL
FKBP4 FK1 domain: Peptidyl-prolyl cis-trans isomerase FKBP4, FK1 domain (FKBP4, Homo sapiens, UniProt Q02790)
UniProt Q02790, sequence (whole entry, looked up): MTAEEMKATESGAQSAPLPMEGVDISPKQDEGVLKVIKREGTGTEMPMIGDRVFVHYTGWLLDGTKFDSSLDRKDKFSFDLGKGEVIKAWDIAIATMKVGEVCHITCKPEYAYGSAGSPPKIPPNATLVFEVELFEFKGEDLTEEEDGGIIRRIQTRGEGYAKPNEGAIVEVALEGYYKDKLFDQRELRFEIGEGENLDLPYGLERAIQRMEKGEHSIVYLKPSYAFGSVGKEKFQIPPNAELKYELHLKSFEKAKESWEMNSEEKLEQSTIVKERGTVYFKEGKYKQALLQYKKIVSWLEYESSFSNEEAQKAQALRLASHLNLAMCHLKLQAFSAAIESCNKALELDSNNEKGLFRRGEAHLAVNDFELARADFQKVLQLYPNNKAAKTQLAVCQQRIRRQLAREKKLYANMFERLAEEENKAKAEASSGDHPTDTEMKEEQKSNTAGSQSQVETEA
Tumor necrosis factor receptor superfamily member 1A extracellular domain: Tumor necrosis factor receptor superfamily member 1A, extracellular domain (Homo sapiens, UniProt P19438)
UniProt P19438, sequence (whole entry, looked up): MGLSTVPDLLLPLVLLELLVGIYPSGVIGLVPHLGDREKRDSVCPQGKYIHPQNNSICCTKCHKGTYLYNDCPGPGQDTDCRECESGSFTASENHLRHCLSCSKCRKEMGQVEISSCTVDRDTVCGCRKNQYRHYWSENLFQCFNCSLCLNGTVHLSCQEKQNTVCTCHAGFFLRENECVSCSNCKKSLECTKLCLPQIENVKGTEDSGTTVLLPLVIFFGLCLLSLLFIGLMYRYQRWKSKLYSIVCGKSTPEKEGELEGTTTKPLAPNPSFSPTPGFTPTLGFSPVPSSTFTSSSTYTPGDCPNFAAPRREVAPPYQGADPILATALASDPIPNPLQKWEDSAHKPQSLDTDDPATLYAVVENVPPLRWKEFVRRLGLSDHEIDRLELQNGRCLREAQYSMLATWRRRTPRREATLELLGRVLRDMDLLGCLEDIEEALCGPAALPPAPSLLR
Ugcg: Ceramide glucosyltransferase (Ugcg, Mus musculus, UniProt O88693)
UniProt O88693, sequence (whole entry, looked up): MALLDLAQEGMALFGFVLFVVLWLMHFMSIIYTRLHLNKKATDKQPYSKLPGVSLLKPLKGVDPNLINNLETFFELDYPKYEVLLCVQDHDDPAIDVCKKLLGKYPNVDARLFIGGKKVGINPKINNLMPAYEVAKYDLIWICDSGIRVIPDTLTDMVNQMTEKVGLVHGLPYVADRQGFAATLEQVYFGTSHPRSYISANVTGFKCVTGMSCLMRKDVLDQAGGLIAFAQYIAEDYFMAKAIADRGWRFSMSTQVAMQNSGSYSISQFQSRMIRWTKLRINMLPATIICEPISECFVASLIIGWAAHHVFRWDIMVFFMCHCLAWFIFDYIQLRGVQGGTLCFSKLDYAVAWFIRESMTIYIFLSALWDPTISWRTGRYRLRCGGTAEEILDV
CA2: Carbonic anhydrase 2 (CA2, Homo sapiens, UniProt P00918)
UniProt Q16611, sequence (whole entry, looked up): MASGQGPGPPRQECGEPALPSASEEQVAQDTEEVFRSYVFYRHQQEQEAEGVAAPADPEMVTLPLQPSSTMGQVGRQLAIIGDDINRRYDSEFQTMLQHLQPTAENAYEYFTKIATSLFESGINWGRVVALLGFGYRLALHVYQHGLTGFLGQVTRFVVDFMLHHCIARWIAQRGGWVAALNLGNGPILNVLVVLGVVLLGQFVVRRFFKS
UniProt P0DPI2, sequence (whole entry, looked up): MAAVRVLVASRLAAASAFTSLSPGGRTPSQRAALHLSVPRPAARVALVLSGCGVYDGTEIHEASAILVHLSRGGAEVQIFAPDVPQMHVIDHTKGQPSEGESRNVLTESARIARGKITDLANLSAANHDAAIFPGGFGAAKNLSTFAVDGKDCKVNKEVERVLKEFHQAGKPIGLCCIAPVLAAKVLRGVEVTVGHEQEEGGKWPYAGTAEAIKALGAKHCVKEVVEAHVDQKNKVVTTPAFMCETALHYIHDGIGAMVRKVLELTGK
UniProt P14635, sequence (whole entry, looked up): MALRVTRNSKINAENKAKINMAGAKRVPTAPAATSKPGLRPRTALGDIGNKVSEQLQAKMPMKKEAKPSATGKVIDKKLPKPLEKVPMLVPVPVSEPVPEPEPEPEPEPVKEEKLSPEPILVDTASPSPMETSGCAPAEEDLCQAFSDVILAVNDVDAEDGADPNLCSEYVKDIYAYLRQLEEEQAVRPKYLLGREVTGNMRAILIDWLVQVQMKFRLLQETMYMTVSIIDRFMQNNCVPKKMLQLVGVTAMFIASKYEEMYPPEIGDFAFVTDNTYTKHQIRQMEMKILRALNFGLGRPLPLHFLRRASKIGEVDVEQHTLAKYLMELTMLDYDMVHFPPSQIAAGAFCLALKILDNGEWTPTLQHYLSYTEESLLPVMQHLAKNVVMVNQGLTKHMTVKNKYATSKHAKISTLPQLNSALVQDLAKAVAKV
UniProt Q9Z2X8, sequence (whole entry, looked up): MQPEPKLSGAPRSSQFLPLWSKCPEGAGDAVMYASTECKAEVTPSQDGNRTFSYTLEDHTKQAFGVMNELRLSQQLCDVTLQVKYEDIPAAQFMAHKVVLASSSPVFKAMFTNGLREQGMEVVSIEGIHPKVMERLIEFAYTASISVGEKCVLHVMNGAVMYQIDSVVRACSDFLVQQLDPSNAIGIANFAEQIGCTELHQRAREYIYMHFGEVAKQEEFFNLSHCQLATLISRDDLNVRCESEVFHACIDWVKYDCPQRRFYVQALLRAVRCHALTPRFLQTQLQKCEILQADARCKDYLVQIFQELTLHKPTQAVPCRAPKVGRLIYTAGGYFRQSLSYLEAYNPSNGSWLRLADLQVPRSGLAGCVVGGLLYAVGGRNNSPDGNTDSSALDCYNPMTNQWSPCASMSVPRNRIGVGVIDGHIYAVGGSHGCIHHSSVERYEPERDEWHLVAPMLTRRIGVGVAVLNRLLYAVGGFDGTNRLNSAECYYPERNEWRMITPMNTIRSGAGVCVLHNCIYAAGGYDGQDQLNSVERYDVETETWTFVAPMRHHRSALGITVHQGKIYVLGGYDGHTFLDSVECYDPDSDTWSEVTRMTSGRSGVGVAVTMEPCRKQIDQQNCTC
UniProt P30837, sequence (whole entry, looked up): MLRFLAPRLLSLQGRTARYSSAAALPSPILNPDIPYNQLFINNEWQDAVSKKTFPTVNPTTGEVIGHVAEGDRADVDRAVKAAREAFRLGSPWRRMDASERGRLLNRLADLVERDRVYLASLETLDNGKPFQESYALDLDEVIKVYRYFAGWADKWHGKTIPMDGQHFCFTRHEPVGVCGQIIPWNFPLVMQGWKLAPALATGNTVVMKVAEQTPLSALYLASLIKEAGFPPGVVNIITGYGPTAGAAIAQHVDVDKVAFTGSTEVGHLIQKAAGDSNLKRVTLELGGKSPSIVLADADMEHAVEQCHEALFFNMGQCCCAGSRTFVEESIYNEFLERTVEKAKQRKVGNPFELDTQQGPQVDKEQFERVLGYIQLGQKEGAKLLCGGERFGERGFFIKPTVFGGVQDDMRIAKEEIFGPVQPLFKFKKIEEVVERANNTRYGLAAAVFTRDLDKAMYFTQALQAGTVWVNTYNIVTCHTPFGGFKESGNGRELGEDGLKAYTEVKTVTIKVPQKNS
UniProt P50052, sequence (whole entry, looked up): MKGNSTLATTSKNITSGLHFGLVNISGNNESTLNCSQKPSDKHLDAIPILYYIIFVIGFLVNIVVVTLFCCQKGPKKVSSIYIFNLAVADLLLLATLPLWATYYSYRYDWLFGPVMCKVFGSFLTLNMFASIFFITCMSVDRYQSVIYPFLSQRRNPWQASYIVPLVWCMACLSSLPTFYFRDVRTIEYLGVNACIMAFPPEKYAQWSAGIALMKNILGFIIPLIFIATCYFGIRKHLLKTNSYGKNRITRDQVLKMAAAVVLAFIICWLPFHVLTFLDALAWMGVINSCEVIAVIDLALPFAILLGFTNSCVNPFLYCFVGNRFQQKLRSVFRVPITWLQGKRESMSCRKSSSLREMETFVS
UniProt P01317, sequence (whole entry, looked up): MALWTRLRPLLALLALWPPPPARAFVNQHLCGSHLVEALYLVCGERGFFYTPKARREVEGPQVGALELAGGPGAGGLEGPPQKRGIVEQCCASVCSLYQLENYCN
UniProt P07737, sequence (whole entry, unmodified, looked up): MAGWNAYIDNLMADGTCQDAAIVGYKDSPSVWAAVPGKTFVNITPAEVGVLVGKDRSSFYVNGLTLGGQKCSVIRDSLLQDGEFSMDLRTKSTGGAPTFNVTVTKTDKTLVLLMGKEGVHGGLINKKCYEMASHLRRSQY

The Kd of CC(=O)N[C@@H](CC(C)C)C(=O)N[C@@H](CCCNC(=N)N)C(=O)NCC(=O)N[C@@H](CO)C(=O)NCC(=O)N[C@@H](C)C(=O)N[C@@H](Cc1c[nH]c2ccccc12)C(=O)NCC(=O)N[C@@H](CC(C)C)C(=O)N[C@@H](CC(C)C)C(=O)N[C@@H](CC(C)C)C(=O)N[C@@H](CCCNC(=N)N)C(=O)N[C@@H](CCCNC(=N)N)C(=O)N[C@H](C(=O)NCC(=O)N[C@@H](CC(=O)O)C(=O)N[C@@H](CC(=O)O)C(=O)N[C@H](C(=O)N[C@@H](CC(C)C)C(=O)N[C@H](C(=O)N[C@@H](Cc1c[nH]cn1)C(=O)N[C@@H](CC(C)C)C(=O)N[C@@H](CC(C)C)C(=O)N[C@@H](C)C(=O)N[C@@H](CCCNC(=N)N)C(N)=O)C(C)C)C(C)C)C(C)C is reported as greater than 20 µM (Bcl-2 homologous antagonist/killer (BAK1, Homo sapiens, UniProt Q16611); binding, FP; pH 8).
The Kd of F[B-]1(F)OC(c2ccc(N3CCCC3)cc2)=Nc2sc3cc(C(F)(F)F)ccc3[n+]21 is reported as 0.318 ± 0.024 µM (Insulin, amyloid fibrils (INS, Bos taurus, UniProt P01317); binding, fluorescence saturation).
The Kd of COc1cc(-c2ccc(N3CCOCC3)cc2)cc(C=O)c1O is reported as 55.7 µM (Serine/threonine-protein kinase/endoribonuclease IRE1 N772Y; microscale thermophoresis).
C=CC1CN(Cc2ccccn2)C(=O)C2CCCC1N2[S+]([O-])c1cc(Cl)cc(Cl)c1 (stereo not shown) gave a Kd of 3.98 µM (FKBP4 FK1 domain; competitive fluorescence polarization; protein 10 nM, together with: 1 nM tracer).
The Kd of O=C(O)c1ccc(-c2ccc(F)cc2)cn1 is reported as 1030 ± 140 µM (Tumor necrosis factor receptor superfamily member 1A extracellular domain; binding, SPR OneStep injection; fragment hits, kinetic fit).
The Kd of C=CC1CN(Cc2ccccn2)C(=O)C2CCCC1N2S(=O)(=O)c1cc(Cl)cc(Cl)c1 (stereo not shown) is reported as 0.092 ± 0.002 µM (FKBP4 FK1 domain; competitive fluorescence polarization; protein 10 nM, together with: 1 nM tracer).
The hepatic clearance of Cc1ccc(-c2ccc([C@H]3[C@@H](F)[C@@H](F)C[C@@H](F)[C@H]3F)cc2)cn1 is reported as 44 mL/min/kg (hepatocyte stability; cryopreserved rat hepatocytes; 1 µM).
Cn1ncc2cc(-c3cncc(Cl)c3N3CCC4(CCNC4=O)CC3)ccc21 gave a Kd of 8.78 µM (G2/mitotic-specific cyclin-B1 (Homo sapiens, UniProt P14635); SILAC displacement; LS174T-L5 cell lysate).
Cc1ccc(-c2ccc(COCCCCCN3C[C@H](O)[C@@H](O)[C@H](O)[C@H]3CO)cc2)cc1 gave an IC50 of 0.1 µM (Ugcg; enzyme activity, inhibitor, fluorescence).
The Kd of C=CC(=O)N1C[C@H](C)N(c2nc(OC[C@@]34CCCN3C[C@H](F)C4)nc3c(F)c(-c4ccc(F)c5sc(N)c(C#N)c45)c(C(F)(F)F)cc23)C[C@H]1C is reported as 0.00552 ± 0.0013 µM (GTPase KRas, GDP-bound (KRAS, Homo sapiens, UniProt P01116, G12D); SPR).
With Nc1cccc(-c2ccc(C(=O)O)nc2)c1 the Kd was 219 ± 125 µM (Tumor necrosis factor receptor superfamily member 1A extracellular domain; binding, SPR OneStep).
COc1ccc(Cn2ccc3ccc(C(=O)NO)cc32)cc1 gave a Kd of greater than 30.2 µM (Isochorismatase domain-containing protein 2 (ISOC2, Homo sapiens, UniProt Q96AB3); inhibitor, competition pulldown; SW620 and MV4-11 lysate; 1 h).
CN(C)c1ccc2c(c1)C(=O)N(CCc1ccc(S(N)(=O)=O)cc1)C2=O gave a Kd of 0.27 µM (CA2; binding).
CC(/C=C/C(=O)NO)=C\[C@@H](C)C(=O)c1ccc(N(C)C)cc1 gave a Kd of greater than 30.2 µM (Glutamine amidotransferase-like class 1 domain-containing protein 3, mitochondrial (GATD3, Homo sapiens, UniProt P0DPI2); inhibitor, competition pulldown; SW620 and MV4-11 lysate; 1 h).
With CCCCNc1ccc(-c2ccnc(C(=O)O)c2)cc1 the Kd was 521 ± 39 µM (Tumor necrosis factor receptor superfamily member 1A extracellular domain; binding, SPR OneStep).
With CC(=O)OCC1C=C(C2(C)CCCCC2)CCC1COC(C)=O (single isomer, unassigned; (+)) the Kd was greater than 10 µM (Peptidyl-prolyl cis-trans isomerase A (PPIA, Homo sapiens, UniProt P62937); binding, SPR; pH 4.5).
The Kd of COc1ccc2cc3[n+](cc2c1OCCCOC(=O)c1cscn1)CCc1cc2c(cc1-3)OCO2 is reported as 1.8 µM (Proprotein convertase subtilisin/kexin type 9 (PCSK9, Homo sapiens, UniProt Q8NBP7); binding, SPR; pH 7.4).
For O=C(NC1CCOCC1)c1ccc([C@H]2[C@@H](F)[C@@H](F)C[C@@H](F)[C@H]2F)cc1, the hepatic clearance was 7.3 mL/min/kg (liver microsome stability; dog liver microsomes; 1 µM).
The Kd of CC(=O)N[C@@H](CCCNC(=N)N)C(=O)N[C@H](C(=O)N[C@@H](CCCCN)C(=O)N[C@@H](CO)C(=O)N[C@@H](CCCNC(=N)N)C(=O)N[C@H](C(=O)N[C@@H](Cc1c[nH]c2ccccc12)C(=O)N[C@@H](C)C(=O)NCC(N)=O)[C@@H](C)OP(=O)(O)O)[C@@H](C)O is reported as 0.0452 µM (14-3-3 protein epsilon (Homo sapiens, UniProt P62258); binding, SPR; pH 7.4).
With CCc1nc2cc3ccccc3cc2cc1C(=O)N1CCC[C@H]1C(=O)N[C@@H](CCC/C=C/CCC[C@H](NC(=O)[C@@H]1CCCN1C(=O)c1cc2cc3ccccc3cc2nc1CC)C(=O)N[C@@H](CCCCN)C(=O)NCCCN)C(=O)N[C@@H](CCCCN)C(=O)NCCCN the Kd was 0.568 µM ((CUG)2 RNA; SPR).
With Cc1c(Cl)cccc1Nc1ccccc1C(=O)O the Kd was 14.1 µM (Aldehyde dehydrogenase X, mitochondrial (ALDH1B1, Homo sapiens, UniProt P30837); binding, SPR).
The Kd of COC1(C2=NCCN2)COc2ccccc2O1 (stereo not shown) is reported as 0.00168 ± 0.00035 µM (Alpha-2C adrenergic receptor (Mus musculus, UniProt Q01337); [3H]compound saturation binding; HEK293 membranes, HA-tagged receptor).
O=C1C2CCCC(C(C(O)CO)CN1Cc1ccccn1)N2S(=O)(=Nc1ccccc1)c1cc(Cl)cc(Cl)c1 (stereo not shown) gave a Kd of greater than 40 µM (FKBP4 FK1 domain; competitive fluorescence polarization; protein 10 nM, together with: 1 nM tracer).
C[n+]1c(/C=C/c2ccc(N(c3ccccc3)c3ccccc3)cc2)cc(/C=C2\Sc3ccccc3N2CCCN2CCCC2)c2ccccc21 gave a Kd of 28.6 µM (hTERT promoter G-quadruplex DNA (human); isothermal titration calorimetry; pH 7.4, 25 °C, 2% DMSO, 60 mM KCl).
COc1cc(-c2ccc3c(c2)OCCN3C)cc(C=O)c1O has a Kd of 18.4 µM (Serine/threonine-protein kinase/endoribonuclease IRE1 N772Y; microscale thermophoresis).
The Kd of O=C1[C@@H]2CCC[C@H]([C@@H](C(O)CO)CN1Cc1ccccn1)N2S(=O)(=O)c1cc(Cl)cc(Cl)c1 (stereo partly shown) is reported as 0.025 ± 0.003 µM (FKBP4 FK1 domain; competitive fluorescence polarization; protein 10 nM, together with: 1 nM tracer).
O=C(O)c1cncc(-c2ccc(F)cc2)c1 has a Kd of 1910 ± 10 µM (Tumor necrosis factor receptor superfamily member 1A extracellular domain; binding, SPR OneStep).
C=CC(=O)N1CCCN(C(=O)c2cc(Sc3cnc(NC(=O)C4CC4)s3)c(C)cc2OC)C[C@H]1C has a Kd of 9.1 µM (Cytoplasmic tyrosine-protein kinase BMX (BMX, Homo sapiens, UniProt P51813); binding, competition with immobilised ligand).
For O=S(=O)(NC1=NCCCCC1)c1ccc2sc(NS(=O)(=O)c3ccc4ccccc4c3)nc2c1, the Kd was 0.186 µM (Kelch-like ECH-associated protein 1 (Mus musculus, UniProt Q9Z2X8); binding).
CC[C@H](C)[C@H](NC(=O)[C@H](Cc1ccc(O)cc1)NC(=O)[C@@H](NC(=O)[C@H](CCCNC(=N)N)NC(=O)[C@@H](N)CC(=O)O)C(C)C)C(=O)N[C@@H](Cc1c[nH]cn1)C(=O)N1CCC[C@H]1C(=O)N[C@@H](Cc1ccccc1)C(=O)N[C@@H](Cc1c[nH]cn1)C(=O)O gave a Kd of 5.95 µM (Type-2 angiotensin II receptor (AGTR2, Homo sapiens, UniProt P50052); binding, SPR).
With CN(C)c1ccc2c(c1)C(=O)N(CCc1ccc(OS(N)(=O)=O)cc1)C2=O the Kd was 0.13 µM (CA2; binding).
The Kd of CCc1nc2cc3ccccc3cc2cc1C(=O)N1CCC[C@H]1C(=O)N[C@@H](C/C=C/C[C@H](NC(=O)[C@@H]1CCCN1C(=O)c1cc2cc3ccccc3cc2nc1CC)C(=O)N[C@@H](CCCCN)C(=O)NCCCN)C(=O)N[C@@H](CCCCN)C(=O)NCCCN is reported as 0.01 µM ((CUG)2 RNA; SPR).
For OC[C@H]1[C@@H](O)[C@H](O)[C@@H](O)CN1CCCCCOCc1ccc2ccccc2c1, the IC50 was 0.003 µM (Ugcg; enzyme activity, inhibitor, fluorescence).
For Cc1n[nH]c(C)c1C(c1ccc(Br)cc1)c1c(C)n[nH]c1C, the Kd was 47.9 µM (Profilin-1 (PFN1, Homo sapiens, UniProt P07737, H120E)).

Some of these lines once more:
With Cc1c(Cl)cccc1Nc1ccccc1C(=O)O the Kd was 14.1 µM (Aldehyde dehydrogenase X, mitochondrial (ALDH1B1, Homo sapiens, UniProt P30837); binding, SPR).
The Kd of COC1(C2=NCCN2)COc2ccccc2O1 (stereo not shown) is reported as 0.00168 ± 0.00035 µM (Alpha-2C adrenergic receptor (Mus musculus, UniProt Q01337); [3H]compound saturation binding; HEK293 membranes, HA-tagged receptor).
